Assay results gathered from unrelated publications.
“And” joins repeats or separate records; there may be more than shown. ± gives the spread as reported.

For `C[C@H]1[C@@H](O)O[C@@H]2O[C@@]3(C)CC[C@H]4[C@H](C)CC[C@@H]1[C@@]24OO3`, “late apoptotic cells” read 1.4% (THP-1; annexin V/PI flow cytometry, measured: annexin V+/PI+; 0.8 µM, 24 h).
For `C=CC(=O)N1CCC[C@@H](c2ccc(C(N)=O)c3[nH]ccc23)C1`, the maximal inhibition was greater than 60% (TMD8 RAC2 knock-out; calcium flux, FLIPR).
With `Cc1nn(-c2nc3ccccc3[nH]2)c(O)c1C(c1ccccc1C(=O)O)c1c(C)nn(-c2nc3ccccc3[nH]2)c1O` the inhibition was 37.5% and 33.5% and 40.6% (THP1-Dual; IFN luciferase reporter; 20 µM, with: HT-DNA).
`CC(C)(c1ccc(O)cc1)c1ccc(O)cc1`: “spheroid area increase” 165% (HepG2 spheroids; planimetry; 10 µM, 0 to 96 h; relative to: mean area of 72 h spheroids).
The inhibition of `Cc1nn(-c2nc3c(F)cc(F)cc3s2)c(O)c1C(c1cccc(C(F)(F)F)c1)c1c(C)nn(-c2nc3c(F)cc(F)cc3s2)c1O` is reported as 0.908% and -2.23% and -9.76% and -7.93% and 1.42% and 0.99% (THP1-Dual; IFN luciferase reporter; 0.625 µM, with: HT-DNA).
The EC50 of `CCCC1=C(C(=O)OCC)C(c2ccccc2Cl)C2=C(CC(c3ccc(OC)c(OC)c3)OC2=O)N1` (stereo not drawn) is reported as greater than 20 µM (J774.A1; cytotoxicity).
`C=CCn1c(=O)c2cnc(Nc3ccc(N4CCN(C)CC4)cc3)nc2n1-c1ccc2c(n1)[C@@](O)(CC)CC2` has a γH2AX-positive cells of 11.2% (Kuramochi; flow cytometry; concentration not given, EdU-positive S phase).
`O=P(O)(O)C(O)(Cn1ccnc1)P(=O)(O)O` gave a viability of 101 ± 2% (hFOB 1.19; AlamarBlue; 1.9 µM, 24 h; relative to: control).
With `CCOC(=O)C1=C(C)NC2=C(C(=O)OC(c3ccccc3)C2)C1c1ccccc1Cl` (stereo not drawn) the EC50 was greater than 20 µM (J774.A1; cytotoxicity).
`C[C@@H](O)[C@H](NC(=O)Nc1ncnc2c1ncn2[C@@H]1O[C@H](CO)[C@@H](O)[C@H]1O)C(=O)O` has an AP-TGFα release of 0% (mock-transfected cells; TGFα shedding, agonist; 1 nM; relative to: unstimulated vehicle control).
The EC50 of `CCOC(=O)C1=C(C)NC2=C(C(=O)OC(c3ccc(OC)c(OC)c3)C2)C1c1ccc(Cl)cc1` (mixture of isomers) is reported as greater than 20 µM (J774.A1; cytotoxicity).
`CCCCC[C@H](O)/C=C/[C@H]1C(=O)C[C@H](O)[C@@H]1C/C=C\CCCC(=O)O` — result for “HTRF cAMP signal”: 323 a.u. and 316 a.u. and 321 a.u. (HEK293-A2AR cells, SLCO2A1 knockout; HTRF cAMP; 50 µM).
Under “surface marker level”, `Cc1cccc(-c2[nH]c(CNc3ccccc3F)nc2-c2ccc3ncnn3c2)n1` is recorded as 182% (RPMI-8226; flow cytometry, measured: CD212; concentration not given; relative to: comparator compound alone).
`CCCCN1C[C@H](O)[C@@H](O)[C@@H](O)[C@H]1CO` has an IC50 of 4.5 µM (sample C patient fibroblasts; Gb3 level lowering, LC-MS/MS, measured: Gb3 d18:1/24:1; 216 h).
With `O=C(/C=C/C=C/C=C/C1CCCCC1)NC1=C[C@@](O)(/C=C/C=C/C=C/C(=O)NC2=C(O)CCC2=O)[C@@H]2O[C@@H]2C1=O` the GI50 was 13.8 µM (MKN-7; cell growth, CellTiter-Glo; 78 h).
`CC(C)NCC(O)c1ccc(O)c(O)c1` (stereo not drawn) gave a sarcomere length of 1.77 µm (mouse ventricular cardiomyocytes; dose not given, 0.083 s).
`COc1cc(/C=C/C(=O)N2CCC=CC2=O)cc(OC)c1OC` gave a mRNA level of 86.1 ± 12% (MDA-MB-468; qRT-PCR, measured: GSR; 30 µM, 6 h; relative to: time zero).
The Emax of `COc1cc(N2CCC(N3CCN(C)CC3)CC2)ccc1Nc1ncc(Cl)c(Nc2ccccc2P(C)(C)=O)n1` is reported as 99.8% (Ba/F3 EML4-ALK v1, no mutation; cell viability).
`CCn1cc(-c2cc(Cn3ccoc3=N)cc3c2CCN([C@@H](C)c2cc(OC)ccn2)C3=O)c(C(F)(F)F)n1` gave an EC50 of greater than 30 µM (AGS; cell growth, inhibitor; 120 h).
`C[C@H]1CN(C2COC2)CCN1c1ccc(Nc2cc(-c3ccnc(N4CCn5c(cc6c5CC(C)(C)C6)C4=O)c3CO)cn(C)c2=O)nc1` has an IC50 of 0.0136 µM (TMD8; calcium flux, FLIPR; 2 h preincubation, with: anti-IgM).
`Cl.c1ccc(Oc2ccc(Nc3ccc4ncc(OCC5CCNCC5)nc4c3)cc2)cc1` — result for mRNA level: “decreased” (MOLM-13; RT-qPCR, measured: Myc and Meis1; 0.3 and 1 µM, 3 days).
The growth percent of `CCCCN1CCN(c2ccc3[nH]c(-c4ccc5[nH]c(-c6ccc(C(F)(F)F)cc6)nc5c4)nc3c2)CC1` is reported as -85.3% (MDA-MB-435; SRB; 10 µM, 48 h).
The EC50 of `CCn1cc(-c2cc(Cn3ccnc3)cc3c2CCN([C@H](c2cc(OC)ccn2)C2CC2)C3=O)c(C(F)(F)F)n1` is reported as greater than 30 µM (BT-20; cell growth, inhibitor; 120 h).
The AP-TGFα release of `CC(C)=CCNc1ncnc2c1ncn2[C@@H]1O[C@H](CO)[C@@H](O)[C@H]1O` is reported as 0.06% and 0.32% and -0.16% (mock-transfected cells; TGFα shedding, agonist; 10 nM; relative to: unstimulated vehicle control).
`CC(C)C[C@H](NC(=O)[C@H](Cc1ccccc1)NC(=O)c1cnccn1)B(O)O` gave an EC50 of 0.132 µM (BRD4-HiBiT cells; BRD4 degradation rescue, inhibitor; 2 h, with: dBET6 500 nM).
`Cc1cc(Nc2ncc(Cl)c(Nc3ccccc3S(=O)(=O)C(C)C)n2)c(OC(C)C)cc1C1CCNCC1`: “log2 fold change” -3.71 (CLB-BAR; phosphoproteomics LC-MS/MS, measured: HSF1 phosphorylation; 200 nM, 60 min; relative to: untreated).
`Nc1cccc2c1CN(C1CCC(=O)NC1=O)C2=O` (stereo not drawn) gave an EC50 of 10.6 µM (BRD4-HiBiT cells; BRD4 degradation rescue, inhibitor; 8 h, 50% degradation rescued, with: dBET6 500 nM).
With `Cc1cnc(NC2CCOCC2)nc1-n1cnc(C(=O)NC(CN)c2cc(F)cc(Cl)c2)c1` (stereo not drawn) the sub-G0 cells was 39.5% (MINO; flow cytometry; 1 µM, 72 h).
The Z score of `FC(F)(F)COCC(F)(F)F` is reported as 1.73 (MDA-MB-231 BAX/BAK siRNA knockdown; cell viability, CellTiter-Glo; direction not given).
With `CC(C)C[C@@H](C=O)NC(=O)[C@H](CC(C)C)NC(=O)[C@H](CC(C)C)NC(=O)OCc1ccccc1` the EC50 was 0.336 µM (BRD4-HiBiT cells; BRD4 degradation rescue, inhibitor; 8 h, 50% degradation rescued, with: dBET6 500 nM).
`Cc1nc(NC(=O)N2CCC[C@H]2C(N)=O)sc1-c1ccnc(C(C)(C)C(F)(F)F)c1` gave an IC50 of 1.78 µM (BT-20; growth rate inhibition, CellTiter-Glo; 120 h).
`CCCCc1nc2c(N)nc3ccccc3c2n1Cc1ccc(N)cc1` has an IFN-α induction of roughly 10 fold (human PBMC; ELISA; concentration not given; relative to: resiquimod).
For `Nc1ncnc2c1ncn2[C@@H]1O[C@H](COP(=O)(O)O)[C@@H](O)[C@H]1O`, the viability was 44.6% and 56.2% (MDA-MB-231 BAX/BAK siRNA knockdown; CellTiter-Glo; concentration not given; relative to: normalised luminescence).
Under “G1 phase cells”, `O=C(C[C@@H](C(F)F)n1ccc(F)n1)N1CCC(O)(Cn2cnc3c(cnn3-c3ccc(F)cc3)c2=O)CC1` is recorded as 75.6% (CHP-212 resistant; PI flow cytometry; 1 µM, 24 h).
`Cn1cc(-c2ccc(-c3cncc(Cl)c3N3CCC4(CCNC4=O)CC3)cc2)cn1` — result for “log2 fold change”: 2.64 (COLO 205; gene expression, microarray, measured: EXD3 mRNA; concentration not given, 6 h; relative to: untreated cells).
With `Cn1c(Nc2nc3ccc(C(F)(F)F)cc3s2)nc2cc(C(=O)NCCOCCO)ccc21` the fold change was 1.58 (SH-SY5Y; RNA-seq, measured: IQGAP2 mRNA; 5 µM, 5 h; relative to: untreated cells).
`C[C@H](CCC(=O)NCCS(=O)(=O)O)[C@H]1CC[C@H]2[C@@H]3CC[C@@H]4C[C@H](O)CC[C@]4(C)[C@H]3CC[C@]12C` has a proliferation increase of 42% (human ADPKD PLD cystic cholangiocytes; cell counting; 20 µM, 24 h; relative to: untreated).
`C[C@@H]1CC[C@H]2[C@@H](/C1=C/C[C@H]1[C@]3(C)CCC(=O)C(C)(C)O[C@H]3CC[C@]1(C)O)C(C)(C)CC[C@]2(C)O` — result for intracellular [3H]-paclitaxel: “no effect” (KB-3-1; 10 µM).
With `CC/C(=N\NC(=O)NCc1cccc(O)c1)c1ccc(O)c(C)c1O` the protein level was 0.71 ± 0.44 (SK-OV-3; Western blot, measured: LATS; 5 µM, 1 h, 3D gellan gum culture, unit not given; relative to: β-actin).
The EC50 of `CCOC(=O)C1=C(C)NC2=C(C(=O)CC(c3ccc(OC)c(OC)c3)C2)C1c1ccc(Cl)cc1C` (mixture of isomers) is reported as greater than 20 µM (J774.A1; cytotoxicity).
The protein level of `CC/C(=N\NC(=O)C(C)Nc1ccccc1)c1ccc(O)c(C)c1O` (stereo not drawn) is reported as 0.96 ± 0.6 (SK-OV-3; Western blot, measured: LATS; 10 µM, 3 h, 2D culture, unit not given; relative to: β-actin).
The Z score of `O=C1NCN(c2ccccc2)C12CCN(CCCC(c1ccc(F)cc1)c1ccc(F)cc1)CC2` is reported as -0.207 (MDA-MB-231 BAX/BAK siRNA knockdown; cell viability, CellTiter-Glo; direction not given).
For `CC(C)C[C@H](NC(=O)CNC(=O)c1cc(Cl)ccc1Cl)B(O)O`, the EC50 was 0.0373 µM (BRD4-HiBiT cells; BRD4 degradation rescue, inhibitor; 24 h, 50% degradation rescued, with: dBET6 500 nM).
`Cc1nn(CC(F)(F)F)cc1Nc1ncc(Br)c(NCc2ccc(S(N)(=O)=O)cc2)n1` — result for “phospho-TBK1 to TBK1 ratio”: 0.639 and 0.367 and 0.59 (THP1-Dual; western blot; 20 µM, with: cGAMP; relative to: DMSO).
`COc1cnc2cccc(N3CCc4c(cc(Cn5ccnc5C)cc4-c4cn(C)nc4C(F)(F)F)C3=O)c2c1` has an EC50 of 10.5 µM (OVK18; cell growth, inhibitor; 120 h).
`Cn1cc(Nc2nccc(-c3ccc4c(c3)CN(C3COC3)CC[C@H]4NC(=O)c3cn(C(C)(C)C)nn3)n2)cn1`: “pathway activation z-score” 3.71 (mouse splenic B cells; measured: Thrombin signalling; 30 mg/kg, IgD-activated in vivo; relative to: vehicle, direction not given).
For `O=C(Nc1nnc2n3c(Cc4ccccc4)n[nH]c3nc(-c3ccc(Cl)cc3)c1-2)c1ccccc1`, the cell growth was 101% (MDA-MB-435; SRB; 10 µM, NCI60 single-dose screen; relative to: untreated).
Under “maximal sensitivity ratio”, `Cc1[nH]c(/C=C2\C(=O)Nc3ccc(S(=O)(=O)N(C)c4cccc(Cl)c4)cc32)c(C)c1C(=O)N1CCN(C)CC1` is recorded as 2 fold (RMS cell lines; cell growth; relative to: RMS over control lines).
For `O=C(Nc1cc(OCCN2CCCC2)c2ccccc2n1)c1cc(Cl)cc(C(=O)Nc2cc(OCCN3CCCC3)c3ccccc3n2)n1`, the selectivity ratio was 4 (HT-1080; cell viability, CellTiter-Glo; 72 h; relative to: IC50 HT-1080 over WI-38).
Under “late apoptotic cells”, `Cc1cc(NS(=O)(=O)c2ccc(NC(=O)/C(C#N)=C/c3ccc(N4CCCCC4)cc3)cc2)no1` is recorded as 12% (HCT-116; annexin V/7-AAD flow cytometry; IC50, 48 h).
`O=c1[nH]nc(OCCCc2ccc(Cl)cc2)c(NCc2cccnc2)c1Br` — result for “normalized enrichment score”: 0.758 (HEK-293T; RNA-seq GSEA, measured: HALLMARK_PEROXISOME; concentration not given; direction not given).

A few entries again:
With `CC/C(=N\NC(=O)NCc1cccc(O)c1)c1ccc(O)c(C)c1O` the protein level was 0.71 ± 0.44 (SK-OV-3; Western blot, measured: LATS; 5 µM, 1 h, 3D gellan gum culture, unit not given; relative to: β-actin).
The EC50 of `CCOC(=O)C1=C(C)NC2=C(C(=O)CC(c3ccc(OC)c(OC)c3)C2)C1c1ccc(Cl)cc1C` (mixture of isomers) is reported as greater than 20 µM (J774.A1; cytotoxicity).
The protein level of `CC/C(=N\NC(=O)C(C)Nc1ccccc1)c1ccc(O)c(C)c1O` (stereo not drawn) is reported as 0.96 ± 0.6 (SK-OV-3; Western blot, measured: LATS; 10 µM, 3 h, 2D culture, unit not given; relative to: β-actin).
The Z score of `O=C1NCN(c2ccccc2)C12CCN(CCCC(c1ccc(F)cc1)c1ccc(F)cc1)CC2` is reported as -0.207 (MDA-MB-231 BAX/BAK siRNA knockdown; cell viability, CellTiter-Glo; direction not given).
For `CC(C)C[C@H](NC(=O)CNC(=O)c1cc(Cl)ccc1Cl)B(O)O`, the EC50 was 0.0373 µM (BRD4-HiBiT cells; BRD4 degradation rescue, inhibitor; 24 h, 50% degradation rescued, with: dBET6 500 nM).
`Cc1nn(CC(F)(F)F)cc1Nc1ncc(Br)c(NCc2ccc(S(N)(=O)=O)cc2)n1` — result for “phospho-TBK1 to TBK1 ratio”: 0.639 and 0.367 and 0.59 (THP1-Dual; western blot; 20 µM, with: cGAMP; relative to: DMSO).
`COc1cnc2cccc(N3CCc4c(cc(Cn5ccnc5C)cc4-c4cn(C)nc4C(F)(F)F)C3=O)c2c1` has an EC50 of 10.5 µM (OVK18; cell growth, inhibitor; 120 h).
